Published values from different studies.
“And” joins repeats or separate records; there may be more than shown. Numbers after ± are the reported error.
UniProt P05177, sequence (whole entry, looked up): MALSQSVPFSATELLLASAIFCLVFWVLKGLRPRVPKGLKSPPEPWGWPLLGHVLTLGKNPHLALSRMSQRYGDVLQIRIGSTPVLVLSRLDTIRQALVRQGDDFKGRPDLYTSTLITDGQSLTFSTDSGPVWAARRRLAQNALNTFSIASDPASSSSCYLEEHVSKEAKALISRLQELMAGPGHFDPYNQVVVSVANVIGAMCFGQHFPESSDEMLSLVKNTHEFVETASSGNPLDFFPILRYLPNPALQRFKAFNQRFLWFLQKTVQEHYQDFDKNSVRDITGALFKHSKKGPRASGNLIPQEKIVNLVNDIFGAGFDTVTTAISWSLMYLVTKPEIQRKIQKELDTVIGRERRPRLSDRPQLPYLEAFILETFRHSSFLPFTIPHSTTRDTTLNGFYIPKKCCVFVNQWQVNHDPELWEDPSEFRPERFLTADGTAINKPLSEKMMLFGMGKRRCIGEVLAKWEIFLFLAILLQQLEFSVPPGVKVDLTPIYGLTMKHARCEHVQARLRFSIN

The tracer uptake of `COc1cccc(OC)c1-c1cc(C(=O)NC2(C(=O)O)C3CC4CC(C3)CC2C4)nn1-c1ccc(C(=O)N(C)CCOCCOCCN(C)C(=O)[C@H](CCCCNC(=O)[C@H](CC(C)C)NC(=O)C2OC2C(=O)O)NC(=O)CN2CCN(CC(=O)[O-])CCN(CC(=O)[O-])CCN(CC(=O)[O-])CC2)cc1C(C)C.[177Lu+3]` (mixture of isomers) is reported as 0.71 %ID/g (HT-29 tumour model; host not given, bone; 4 h, tumour-bearing).
For `CN1CCCNC(=O)c2cccc(c2)C(=O)NCCCN(C)CCCNc2cccc3c2C(=O)c2cccc(c2C3=O)NCCC1`, the viability was 10.2% (Ca9-22; CCK-8; 5 µM, 48 h; reference: untreated).
The tracer uptake of `N#C[C@@H]1CC(F)(F)CN1C(=O)CNC(=O)c1ccnc2c(NC(=O)[C@@H](N)CCCCNC(=O)CCOCCOCCOCCOCCOCCOCCNC(=O)CN3CCN(CC(=O)[O-])CCN(CC(=O)[O-])CCN(CC(=O)[O-])CC3)cccc12.[177Lu+3]` is reported as 8.93 %ID/g (U-87 MG tumour model; host not given, tumour; 1 h, tumour-bearing).
`c1ccc(Nc2nc(NCC3CCCO3)c3ccccc3n2)cc1` (stereo not shown) has a relative translation of 41.5% (Trypanosoma cruzi; reporter mRNA translation, inhibitor, refers to: capped polyadenylated Renilla luciferase mRNA; cell-free extract; concentration not given; reference: control RNA).
`O=C1C2CC3CC1CC(C(=O)N1CCN(c4ccc([N+](=O)[O-])c5ncccc45)CC1)(C3)C2` — result for “revertant fold increase”: 0.8 (Salmonella typhimurium; Ames test; TA100; 0.13 µg/well, without S9; reference: vehicle).
For `COc1ccc2c(c1)C(C)(C)C(/C=C/C1=C(Oc3ccc(C(=O)NCCCCOc4cc(CN(Cc5ccccn5)Cc5ccccn5)cc(CN(Cc5ccccn5)Cc5ccccn5)c4)cc3)C(=C/C=C3/N(CCCCS(=O)(=O)[O-])c4ccc(OC)cc4C3(C)C)CCC1)=[N+]2CCCCS(=O)(=O)[O-].O=[N+]([O-])[O-].O=[N+]([O-])[O-].[99Tc+].[C-]#[O+].[C-]#[O+].[C-]#[O+].[Zn+2]`, the thyroid/trachea uptake was 1.15 %ID/g (Staphylococcus aureus; biodistribution; BALB/c mouse, bacterial myositis; 12 h post-injection).
For `O=Cc1c(O)c(C=O)c(O)c(C=O)c1O`, “pseudo-first-order rate constant” read 15.8 h⁻¹ (reaction with N-acetyl-lysine, HPLC-MS; pH 10.2, with: N-α-acetyl-lysine).
With `O=C1NC2(CC2)COc2ncc(F)cc2[C@H]2COCCN2c2ccn3ncc1c3n2` the revertant colonies was 9 ± 4 revertants/plate (Salmonella typhimurium; Ames test; TA1535; 150 µg/plate, 48 h, with: rat liver S9).
The revertants of `CCN(CC)CC#CCNc1ccnc2cc(Cl)ccc12` is reported as 5 revertants/well and 1 revertants/well (Salmonella typhimurium; mini-Ames test; TA98; 1000.0 µg/well, without S9).
The viability of `COc1cc(N2CCN(C(=O)CCOCCNC(=O)[C@@H]3CCCN3)CC2)ccc1Nc1ncc(Cl)c(Nc2ccccc2P(C)(C)=O)n1` is reported as 80% and 82% and 85% (NCI-H3122; CCK-8; 0.1 µM, 48 h).
With `CNC(=O)C1CCCN(C(=O)C2CC3CCC2N3C(=O)[C@@H]2C[C@@H](O)CN2C(=O)NCc2cccc(Cl)c2F)C1` (mixture of isomers) the remaining activity was 115% and 99.5% and 113% (Cytochrome P450 1A2 (CYP1A2, Homo sapiens, UniProt P05177); preincubation with NADPH; human; 5.56 µM; reference: negative control).
`CCCC[C@H](NC(C)=O)C(=O)N[C@@H](CO)C(=O)N[C@H](C(=O)N1CCC[C@H]1C(=O)N[C@]1(C)CCCCCCC=CCCC[C@@](C)(C(=O)N[C@@H](Cc2ccccc2)C(=O)N[C@@H](CCCCN)C(=O)N[C@@H](CCCNC(=N)N)C(=O)N[C@@H](CC(C)C)C(=O)N[C@@H](CCC(N)=O)C(N)=O)NC(=O)[C@H](CCCNC(=N)N)NC(=O)[C@H](CCCC)NC(=O)[C@H](CC(C)C)NC(=O)[C@H](CCCNC(=N)N)NC(=O)[C@H](CCCNC(=N)N)NC(=O)[C@H](CCCNC(=N)N)NC1=O)[C@@H](C)O` has a remaining peptide of 80.7% and 76.2% (proteinase K; LC-MS; 25 µM, 123.0 min, pH 7.4).
`CC(C)OCCOCc1ccc(OCC(O)CN(N=O)C(C)C)cc1` (stereo not shown): “revertant fold increase” 0.9 fold (Salmonella typhimurium; Ames test; TA1535; 15.8 µg/plate, 30 % rat S9; reference: solvent control).
With `CCCCC(=O)NC(c1ccc(N(CC)CC)cc1)c1ccc2cccnc2c1O` (stereo not shown) the relative translation was 116% (Trypanosoma cruzi; reporter mRNA translation, inhibitor, refers to: capped polyadenylated Renilla luciferase mRNA; cell-free extract; concentration not given; reference: control RNA).
The tracer uptake of `N#C[C@@H]1CC(F)(F)CN1C(=O)CNC(=O)c1ccnc2c(NC(=O)[C@H](CCCCNC(=O)CCOCCOCCOCCOCCOCCOCCNC(=O)CN3CCN(CC(=O)[O-])CCN(CC(=O)[O-])CCN(CC(=O)[O-])CC3)NC(=O)CCCc3ccc(I)cc3)cccc12.[177Lu+3]` is reported as 21.4 %ID/g (U-87 MG tumour model; host not given, blood; 1 h, tumour-bearing).
With `COc1cccc(OC)c1-c1cc(C(=O)NC2(C(=O)O)C3CC4CC(C3)CC2C4)nn1-c1ccc(C(=O)N(C)CCCN(C)CCCN(C)C(=O)[C@H](CCCCNC(=O)[C@H](CC(C)C)NC(=O)C2OC2C(=O)O)NC(=O)CN2CCN(CC(=O)[O-])CCN(CC(=O)[O-])CCN(CC(=O)[O-])CC2)cc1C(C)C.[177Lu+3]` (mixture of isomers) the tracer uptake was 0.36 %ID/g (HT-29 tumour model; host not given, pancreas; 24 h, tumour-bearing).

A few entries again:
With `CCCCC(=O)NC(c1ccc(N(CC)CC)cc1)c1ccc2cccnc2c1O` (stereo not shown) the relative translation was 116% (Trypanosoma cruzi; reporter mRNA translation, inhibitor, refers to: capped polyadenylated Renilla luciferase mRNA; cell-free extract; concentration not given; reference: control RNA).
For `O=Cc1c(O)c(C=O)c(O)c(C=O)c1O`, “pseudo-first-order rate constant” read 15.8 h⁻¹ (reaction with N-acetyl-lysine, HPLC-MS; pH 10.2, with: N-α-acetyl-lysine).
